# Assay results pooled from the literature.
# Lines come from different studies, so protocols differ. Numbers after ± are the reported error.
Compound,cell line,test,test system,conditions,how to read,endpoint,value
COC(=O)NC(C(=O)NN(Cc1ccc(Br)cc1)CC(O)(Cc1ccccc1)C(=O)Nc1cccc(O)c1C)C(C)(C)C (stereo not drawn),Caco-2,,,"pH 7.4, 1% BSA in receiver",,Papp B-to-A,190 ± 10 ×10⁻⁶ cm/s
COC(=O)C1CN1S(=O)(=O)c1ccc2cc(C)ccc2c1 (stereo not drawn),Balb/c 3T3 fibroblasts,"cytotoxicity, neutral red uptake",DMEM with 5% FBS,24 h,,IC50,44 ± 6 µM
Cc1nc(C)c(C=[N+]([O-])C(C)(C)C)nc1C,Sprague-Dawley rat primary midbrain neurons,,,"100 µM, 24 h",reference: untreated,viability,98.1 ± 1.46%
C#Cc1cn([C@@H]2O[C@H](CO)C[C@H]2O)c2ncnc(N)c12,MRC-5 SV2,"cytotoxicity, resazurin",medium with 5% FBS,72 h,,EC50,1.29 ± 0.56 µM
CCCN(CC(=O)N(CCC)CC(=O)N(CCC)CC(=O)N(CCC)CC(=O)N(CC(=O)N(CCC)CC(=O)N(CCC)CC(=O)N(CCC)CC(=O)N(CCC)CC(=O)N(CC(=O)N(CCC)CC(=O)N(CCC)CC(=O)N(CCC)CC(=O)N(CCC)CC(=O)N(CC(N)=O)Cc1cn(CCCNC(=O)CCCOc2cccc(-c3nc4ccc(-c5nc6ccc(N7CCN(C)CC7)cc6[nH]5)cc4[nH]3)c2)nn1)Cc1cn(CCCNC(=O)CCCOc2cccc(-c3nc4ccc(-c5nc6ccc(N7CCN(C)CC7)cc6[nH]5)cc4[nH]3)c2)nn1)Cc1cn(CCCNC(=O)CCCOc2cccc(-c3nc4ccc(-c5nc6ccc(N7CCN(C)CC7)cc6[nH]5)cc4[nH]3)c2)nn1)C(=O)CNCc1cn(CCCNC(=O)CCCOc2cccc(-c3nc4ccc(-c5nc6ccc(N7CCN(C)CC7)cc6[nH]5)cc4[nH]3)c2)nn1,C2C12,flow cytometry,,"5 µM, 48 h",,propidium iodide-only positive cells,0.03%
CCCC[C@H](NC(=O)[C@H](CC(=O)O)NC(=O)[C@H](CC(=O)O)NC(=O)[C@H](CCC(=O)O)NC(=O)[C@H](Cc1ccc(O)cc1)NC(=O)[C@H](CC(=O)O)NC(=O)[C@H](CC(=O)O)NC(=O)[C@H](CCC(=O)O)NC(=O)[C@H](CC(C)C)NC(=O)[C@H](CCC(=O)O)NC(=O)[C@H](CCC(=O)O)NC(=O)c1ccc2c(c1)C1(OC2=O)c2ccc(O)cc2Oc2cc(O)ccc21)C(=O)N[C@@H](CCC(=O)O)C(=O)N[C@@H](CCC(=O)O)C(N)=O,A-431 microinjected,,,median,,half-life,35 min
CNc1ccc(-c2nc3ccc(O)c(CN4CCN(C)CCN(C)CC4)c3s2)cc1,Neuro2A,Alamar Blue,,"up to 10 µM, 40 h",reference: 1% DMSO vehicle,viability,> 80%
CC(C)=CCc1cc(-c2coc3cc(O)c(CC=C(C)C)c(O)c3c2=O)ccc1O,A549,"cell growth or viability, MTT",,100 µg/mL,,viability,5.09%
CCCN(CC(=O)N(CCC)CC(=O)N(CCC)CC(=O)N(CCC)CC(=O)N(CC(=O)N(CCC)CC(=O)N(CCC)CC(=O)N(CCC)CC(=O)N(CCC)CC(=O)N(CC(N)=O)Cc1cn(CCCNC(=O)CCCOc2cccc(-c3nc4ccc(-c5nc6ccc(N7CCN(C)CC7)cc6[nH]5)cc4[nH]3)c2)nn1)Cc1cn(CCCNC(=O)CCCOc2cccc(-c3nc4ccc(-c5nc6ccc(N7CCN(C)CC7)cc6[nH]5)cc4[nH]3)c2)nn1)C(=O)CNCc1cn(CCCNC(=O)CCCOc2cccc(-c3nc4ccc(-c5nc6ccc(N7CCN(C)CC7)cc6[nH]5)cc4[nH]3)c2)nn1,C2C12,flow cytometry,,"5 µM, 48 h",,propidium iodide-only positive cells,0.24%
Cc1ccc(S(=O)(=O)N2CC2C(=O)N(C)C)c2ccccc12 (stereo not drawn),Balb/c 3T3 fibroblasts,"cytotoxicity, neutral red uptake",DMEM with 5% FBS,24 h,,IC50,12 ± 3 µM
O=C(N[C@@H](Cn1ccnc1)c1ccc(F)cc1F)c1ccc(-c2nnc(-c3ccccc3)o2)cc1,NIH/3T3,BrdU incorporation,,"50 µM, 24 h",reference: DMSO,viability,65.9 ± 3.1%
CC1(C)CCCC(C)(C2CCC3(C)C2C(O)CC2C4(C)CCC(O)C(C)(C)C4C(OC(=O)c4cn(-c5ccccc5)nn4)CC23C)O1 (stereo not drawn),Hep3B,"cell growth or viability, MTT",,24 h,,IC50,> 30 µM
